Measurements gathered from unrelated publications.
Several values in a cell are separate wells, animals, samples, runs or records. Numbers after ± are the reported error.
FABP1: Fatty acid-binding protein, liver (FABP1, Homo sapiens, UniProt P07148)
PAK5: Serine/threonine-protein kinase PAK 5 (PAK5, Homo sapiens, UniProt Q9P286)

SMILES	tested on	test	test system	setting	scale	endpoint	result
CCC(C)c1cc([N+](=O)[O-])cc([N+](=O)[O-])c1O (centres unmarked)	FABP1	affinity selection mass spectrometry	–	100 nM, together with: pooled compounds	relative to: other proteins	binding fold change	59.1
CC(C)C[C@H](NC(=O)[C@H](Cc1cccc2ccccc12)NC(=O)OCc1ccccc1)C(=O)NC(C[C@@H]1CCNC1=O)C1OC1S(C)(=O)=O (some centres unmarked)	Genome polyprotein, protease domain (Lordsdale virus, UniProt P54634)	enzyme activity, FRET	–	37 °C	–	IC90	> 100000 nM
COc1ccc(N2C(=O)N(c3c(C)cccc3Cl)Cc3cnc(Nc4ccc(C5CCN(C)CC5)cc4OC)nc32)nc1	PAK5	kinase activity	–	0.5 µM	–	inhibition	7%
COCC1OC2CC(CC(N)C(=O)O)(C(=O)O)OC2C(O)C1O (centres unmarked)	Glutamate receptor ionotropic, kainate 1 (Rattus norvegicus, UniProt P22756, del402-416)	ion current, agonist, whole-cell patch-clamp	HEK-293T/17	10 µM	relative to: 10 mM glutamate	current amplitude	~25%
CC1(C)C(C=C(Cl)Cl)C1C(=O)OCc1cccc(Oc2ccccc2)c1 (centres unmarked)	uncharacterized protein (Anopheles coluzzii, UniProt A0A6E8VQK1)	enzyme activity, inhibitor	Sf9 cell homogenate	209.3 µM, 0.1667 h, together with: α-naphthyl acetate substrate	relative to: no inhibitor	remaining activity	2.7%
CCOc1ccc(NC(=O)c2cnn(-c3ccc(C)c(Cl)c3)c2C2CCNCC2)cc1	Vero-E6	CellTiter-Glo ATP	–	concentration not given, 72 h, retest 8-point duplicates	relative to: DMSO 0%, hyamine -100%, more negative, more toxic	cytotoxicity efficacy	-11.4%
O=C(CF)N[C@H]1[C@H]([C@H](O)[C@H](O)CO)O[C@@](OC[C@H]2O[C@@H](Oc3ccc([N+](=O)[O-])cc3)[C@H](O)[C@@H](O)[C@H]2O)(C(=O)O)C[C@@H]1O	Sialidase-2 (Homo sapiens, UniProt Q9Y3R4)	substrate	–	10 min, pH 5.0, 37 °C	–	Km	1 ± 0.2 mM
CC/C=C\C/C=C\C/C=C\C/C=C\C/C=C\CCCC(=O)O	cyp102A1 (Bacillus megaterium, UniProt P14779)	NADPH consumption, substrate	–	100 µM	–	kcat	5.49 ± 0.18 µmol/min/nmol
Nc1ncnc2c1ncn2[C@@H]1O[C@H](COP(=O)(O)OP(=O)(O)O)[C@@H](O)[C@H]1O	Cell cycle histidine kinase CckA, R374A; cytoplasmic region (Caulobacter vibrioides, UniProt Q9X688, R374A)	binding, ITC	–	together with: without c-di-GMP	–	ΔS	8.41 cal/mol/K
CC(C)[C@@H](O)CC[C@@H](C)[C@H]1CC[C@H]2[C@@H]3CC=C4C[C@@H](O)CC[C@]4(C)[C@H]3CC[C@]12C	Glutamate NMDA receptor; GRIN1/GRIN2B (GRIN1/GRIN2B, Homo sapiens, UniProt Q05586+Q13224, A652C)	two-electrode voltage clamp	Xenopus oocytes	concentration not given, with PAM, from MTSEA potentiation, together with: MTSEA	–	open probability	0.07 ± 0.005
N=C(N)NCCC[C@H](NC(=O)[C@@H](Cc1ccccc1)NC(=O)[C@H](Cc1c[nH]cn1)NC(=O)CCCc1ccccc1)C(=O)N[C@@H](Cc1c[nH]c2ccccc12)C(=O)NCC(=O)N[C@@H](CCCCNC(=O)CCCCCNC(=O)CN1CCN(CC(=O)O)CCN(CC(=O)O)CCN(CC(=O)O)CC1)C(N)=O [actinium-225 labelled]	–	five-compartment model fit	SCID mice, A-375 and A-375/MC1R xenografts	–	–	kidney reverse transfer rate constant (ko)	0.0035 h⁻¹
Nc1ccncc1	Glutamate receptor 2 (Homo sapiens, UniProt P42262)	ion current, agonist, automated patch clamp	HEK293	3 µM	–	activation	4%
O=C(NNC(=O)c1csnn1)c1ccc(Cl)cc1	Acetyl-CoA synthetase (Cryptococcus neoformans, UniProt J9VFT1)	–	–	1.56 µM	–	remaining activity	60.3%
O=C(Nc1cccnn1)N1CCC(=Cc2cccc(Oc3ccc(C(F)(F)F)cn3)c2)CC1	HRH4 (Homo sapiens, UniProt Q9H3N8)	radioligand binding	–	50 µM, together with: [3H]histamine	–	inhibition of binding	62%
COc1ccc(F)cc1C(=O)NCc1ccc(-c2nn([C@@H](C)C(F)(F)F)c(N)c2C(N)=O)cc1	MAP2K1 (Homo sapiens, UniProt Q02750)	enzyme activity	–	–	relative to: MAP2K1 over BTK	selectivity ratio	46.7
[2H]c1c([2H])c([C@]2([2H])CCCN2C(=O)C(C)(C)Oc2ccc3cn[nH]c3c2)c([2H])c([2H])c1C([2H])([2H])[2H]	PAK5	KINOMEscan	–	1 µM	relative to: DMSO control	remaining binding	64%
Nc1nc2c(ncn2[C@@H]2O[C@H](COP(=O)(O)OP(=O)(O)OP(=O)(O)O)[C@@H](O)[C@H]2O)c(=O)[nH]1	GTP 3',8-cyclase (moaA, Staphylococcus aureus, UniProt P69848)	isothermal titration calorimetry	–	concentration not given	–	binding enthalpy ΔH	-19.9 ± 2 kcal/mol
CCCCO	ADH1 (Saccharomyces cerevisiae, UniProt P00330, H49Q)	enzyme activity, substrate	–	pH 6	–	Km	~64 mM
O=C(O)CCC(=O)C(=O)O	HIF1AN (Homo sapiens, UniProt Q9NWT6)	substrate inhibition, steady-state kinetics	–	–	–	Ki/Km	~100 fold
C=C(CN(C(=O)c1c(C(F)F)nn(C)c1F)C1CC1)c1ccc(Cl)cc1Cl	SDHD/SDHC/SDHB (Sus scrofa, UniProt A5GZW8+D0VWV4+Q007T0)	enzyme activity, inhibitor, DCIP reduction	pig	0.2 µM, together with: DCIP 40 µM	–	reaction velocity	0.00875 µM/s and 0.00982 µM/s and 0.00986 µM/s
N[C@@H](Cc1c[nH]c2ccccc12)C(=O)O	Transcription attenuation protein MtrB, Δ71 truncation (mtrB, Geobacillus stearothermophilus, UniProt Q9X6J6)	isothermal titration calorimetry	–	concentration not given, 25 °C, one-site model	–	binding stoichiometry	12 ± 0.02

SMILES	tested on	test	test system	setting	scale	endpoint	result
Cc1ccc(-c2cccc(CN3CCCC(c4nc5ccc(C)cc5c(=O)[nH]4)C3)c2)c(C)c1 (centres unmarked)	Vero-E6	CellTiter-Glo ATP	–	72 h, second round 5-point	relative to: DMSO 0%, hyamine -100%, more negative, more toxic	maximum response	-8.47%
COc1cc(N)c(Cl)cc1C(=O)NC1CN2CCC1CC2 (centres unmarked)	G-protein coupled receptor 146 (GPR146, Homo sapiens, UniProt Q96CH1)	β-arrestin recruitment, TANGO luminescence, refers to: GPR146	–	concentration not given	relative to: basal luminescence	log2 fold change	1.14
CC(C)CCN[C@H]1[C@H]([C@H](O)[C@H](O)CO)OC(C(=O)O)=C[C@@H]1O	Sialidase-1 (NEU1, Homo sapiens, UniProt Q99519)	enzyme activity, inhibitor	–	concentration not given, pH 4.5	–	activity	inactive
CI	HOL1 (Arabidopsis thaliana, UniProt Q0WP12, L101I/V140T/V178E/T213S)	substrate, iodide release colorimetric	–	pH 7.5, sodium phosphate buffer, together with: 1 mM SAH	–	Km	4.9 ± 1.25 mM
Nc1ncc(-c2nc(N3CCOCC3)nc(N3CCOCC3)n2)c(C(F)F)n1	central benzodiazepine site	radioligand binding, agonist ligand	–	10 µM	relative to: control	remaining binding	136%
COc1ccc2[nH]c3c(c2c1)CCN(C)CC3.Cl	Nicotinic acetylcholine receptor alpha9/alpha10 (Rattus norvegicus, UniProt P43144+Q9JLB5)	ion current, inhibitor, two-electrode voltage clamp	Xenopus laevis oocytes	3 µM, rat receptor, together with: acetylcholine 10 µM	–	recovery time constant	9.5 s
C#CCCCCNC(=O)CI	ATP6V1A (Homo sapiens, UniProt P38606)	mass spectrometry profiling	Ramos cell lysate	100 µM over 10 µM, UniProt P38606	relative to: high over low concentration	reactivity ratio	0.903
O=S(=O)(O)C(F)(F)C(F)(F)C(F)(F)C(F)(F)C(F)(F)C(F)(F)F	FABP1	affinity selection mass spectrometry	–	100 nM, together with: pooled compounds	relative to: other proteins	binding fold change	153
CCCC(=O)N[C@H]1CCOC1=O	Regulatory protein SdiA (sdiA, Escherichia coli, UniProt P07026)	–	–	–	–	Emax	123%
CC/C(=C(\c1ccc(O)cc1)c1ccc(OCCN(C)C)cc1)c1ccccc1	CNR2 (Homo sapiens, UniProt P34972)	refers to: cAMP	CHO-hCB2 cells	10 µM	relative to: basal	adenylyl cyclase activity increase	175%
COc1cc2c(Oc3ccc4[nH]c(C)cc4c3F)ccnc2cc1OCC1(N)CC1	–	–	paediatric refractory sarcoma patients	12 mg	–	Appendicitis incidence	9.1%
Cn1nccc1[C@]1(CNC(=O)c2ccc(F)c(F)c2-c2ccc(C(F)(F)F)cc2)NC(=O)NC1=O	Cathepsin B (CTSB, Homo sapiens, UniProt P07858)	inhibitor	–	–	relative to: CTSB over target	selectivity ratio	> 16700
O=C(c1ccc(Cl)cc1)N1CCN2C(=O)N(OC(=O)N3CCOc4ccccc43)C(=O)C2C1 (centres unmarked)	ACTB (Homo sapiens, UniProt P60709)	MS-based ABPP	SW-620 conditioned medium	10 µM	relative to: compound over DMSO, lower = more inhibition	peptide ratio	1 and 1.43 and 1.01 and 0.96 and 0.92 and 1.13 and 0.89
Oc1ccc(-c2ccc(Cl)cc2)c(Cl)c1	Estrogen receptor (ESR1, Homo sapiens, UniProt P03372)	reporter gene, agonist	T47D.luc	24 h	relative to: estradiol	EC25	100 nM
O=C(O)COP(=O)(O)O	TPI1 (Saccharomyces cerevisiae, UniProt P00942, Y208T)	enzyme activity, competitive inhibitor, GPDH/NADH-coupled	–	pH 9.3, 25 °C, ionic strength 0.1 NaCl, together with: glyceraldehyde 3-phosphate substrate	relative to: mutant over wild type	Ki ratio	11
C[C@H]1CN(c2n[nH]c3nc(N[C@H]4CC[C@H](NS(=O)(=O)CCC(F)(F)F)CC4)ncc23)CCO1	Protein Aster-A (Homo sapiens, UniProt Q96CP6)	Kinobeads competition, refers to: GRAMD1A	–	0.8 µM, unit not given	relative to: vehicle	remaining binding	1.33
CC(C)C[C@@H]1NC(=O)[C@H](CC(C)C)NC(=O)[C@H](Cc2c[nH]c3ccccc23)NC(=O)[C@H](CO)NC(=O)[C@H](Cc2c[nH]c3ccccc23)NC(=O)[C@@H]2CCCN2C(=O)[C@H](CC(C)C)NC(=O)[C@H](Cc2c[nH]cn2)NC(=O)[C@@H]2CCCN2C(=O)[C@H](CC(N)=O)NC(=O)[C@H](C)NC(=O)[C@H](Cc2ccc(O)cc2)NC(=O)[C@H](CS)NC(=O)[C@H](CCCCNC(=O)CN2CCN(CC(=O)O)CCN(CC(=O)O)CCN(CC(=O)O)CC2)NC1=O [lutetium-177 labelled]	–	–	Balb/c mouse, female, 4T1 tumour, kidney	intravenous, 3.7 MBq, 4 h	–	tissue uptake	8.23 ± 1.47 %ID
CC(=O)N[C@@H](Cc1c[nH]c2ccccc12)C(=O)OCc1cc(C(F)(F)F)cc(C(F)(F)F)c1	Substance-P receptor (Cavia porcellus, UniProt P30547)	substance P-induced contraction, antagonist	guinea pig ileum	together with: naloxone 1 µM	–	Ke	250 ± 87 nM
COc1cc(Br)cc(Br)c1Oc1cc(Br)cc(Br)c1O	SULT1E1 (Homo sapiens, UniProt P49888)	sulfonation, substrate	–	–	–	Vmax/Km	8400 µL/min/mg
CN1CCN(c2cc(-c3ccncc3)c(-c3ccc4ccccc4c3)nn2)CC1	GPR39 (Homo sapiens, UniProt O43194)	agonist, FLIPR	–	12.5 µM	–	activation	-0.6%

Repeated from above:
SMILES	tested on	test	test system	setting	scale	endpoint	result
Nc1ccncc1	Glutamate receptor 2 (Homo sapiens, UniProt P42262)	ion current, agonist, automated patch clamp	HEK293	3 µM	–	activation	4%
CC(C)C[C@@H]1NC(=O)[C@H](CC(C)C)NC(=O)[C@H](Cc2c[nH]c3ccccc23)NC(=O)[C@H](CO)NC(=O)[C@H](Cc2c[nH]c3ccccc23)NC(=O)[C@@H]2CCCN2C(=O)[C@H](CC(C)C)NC(=O)[C@H](Cc2c[nH]cn2)NC(=O)[C@@H]2CCCN2C(=O)[C@H](CC(N)=O)NC(=O)[C@H](C)NC(=O)[C@H](Cc2ccc(O)cc2)NC(=O)[C@H](CS)NC(=O)[C@H](CCCCNC(=O)CN2CCN(CC(=O)O)CCN(CC(=O)O)CCN(CC(=O)O)CC2)NC1=O [lutetium-177 labelled]	–	–	Balb/c mouse, female, 4T1 tumour, kidney	intravenous, 3.7 MBq, 4 h	–	tissue uptake	8.23 ± 1.47 %ID
CC(C)[C@@H](O)CC[C@@H](C)[C@H]1CC[C@H]2[C@@H]3CC=C4C[C@@H](O)CC[C@]4(C)[C@H]3CC[C@]12C	Glutamate NMDA receptor; GRIN1/GRIN2B (GRIN1/GRIN2B, Homo sapiens, UniProt Q05586+Q13224, A652C)	two-electrode voltage clamp	Xenopus oocytes	concentration not given, with PAM, from MTSEA potentiation, together with: MTSEA	–	open probability	0.07 ± 0.005
